Measured values collected from several papers.
Compare with care: the assays were run in different laboratories.

SMILES | organism | test | test system | conditions | EC50
O=C1/C(=N\NC(=S)NN=Cc2cccs2)c2ccccc2N1Cc1ccccc1 | vesicular stomatitis virus | viral replication | HeLa | – | > 4 µM
O=C(CN1CCCC2=CC3CC(CN4CCCCC34)C21)Nc1cc(Br)ccc1F (stereo not shown) | vesicular stomatitis virus | pseudovirus entry | – | VSV G pseudovirus | 66.8 µM
CCC(=C(c1ccc(Cl)cc1)c1ccc(OCCN2CCCCC2)cc1)c1ccc(OC)cc1 | influenza A virus H1N1 | cytopathic effect, visual CPE | MDCK | – | > 3.2 µg/mL
Cc1ccc(NC(=O)CN2CCCC3=CC4CC(CN5CCCCC45)C32)c(Cl)c1 (stereo not shown) | vesicular stomatitis virus | pseudovirus entry | – | VSV G pseudovirus | 87.9 µM
CCC(=C(c1ccc(Cl)cc1)c1ccc(OCCN(C)C)cc1)c1ccc(OC)cc1 | influenza A virus H1N1 | cytopathic effect, visual CPE | MDCK | – | > 4.2 µg/mL
CCCCCCCCCC(=O)OCC1OC(n2cc(C)c(=O)[nH]c2=O)CC1N(C)C (stereo not shown) | vesicular stomatitis virus | viral replication | HeLa | – | > 0.23 µM
CCC(=C(c1ccc(Cl)cc1)c1ccc(OCCN2CCCC2)cc1)c1ccccc1 | influenza A virus H1N1 | cytopathic effect, visual CPE | MDCK | – | 0.29 µg/mL
Cc1cn(C2CC(N(C)C)C(CO)O2)c(=O)[nH]c1=O (stereo not shown) | vesicular stomatitis virus | viral replication | HeLa | – | > 0.37 µM
O=C(c1ccc(Cl)cc1)N1CCCC2=CC3CC(CN4CCCCC34)C21 (stereo not shown) | vesicular stomatitis virus | pseudovirus entry | – | VSV G pseudovirus | 214 µM
O=C(Cc1csc2nc(-c3ccc(Br)cc3)cn12)NN=C1CCCC1 | vesicular stomatitis virus | viral cytopathic effect | HEL | – | > 100 µg/mL

For quick reference, copied from above:
SMILES | organism | test | test system | conditions | EC50
CCC(=C(c1ccc(Cl)cc1)c1ccc(OCCN(C)C)cc1)c1ccc(OC)cc1 | influenza A virus H1N1 | cytopathic effect, visual CPE | MDCK | – | > 4.2 µg/mL
